# Measurements collected from several papers.
# Lines come from different studies, so protocols differ. Numbers after ± are the reported error.
# Target: Tyrosine-protein kinase JAK3 (JAK3, Homo sapiens, UniProt P52333)
# One construct used (P52333 1-1124): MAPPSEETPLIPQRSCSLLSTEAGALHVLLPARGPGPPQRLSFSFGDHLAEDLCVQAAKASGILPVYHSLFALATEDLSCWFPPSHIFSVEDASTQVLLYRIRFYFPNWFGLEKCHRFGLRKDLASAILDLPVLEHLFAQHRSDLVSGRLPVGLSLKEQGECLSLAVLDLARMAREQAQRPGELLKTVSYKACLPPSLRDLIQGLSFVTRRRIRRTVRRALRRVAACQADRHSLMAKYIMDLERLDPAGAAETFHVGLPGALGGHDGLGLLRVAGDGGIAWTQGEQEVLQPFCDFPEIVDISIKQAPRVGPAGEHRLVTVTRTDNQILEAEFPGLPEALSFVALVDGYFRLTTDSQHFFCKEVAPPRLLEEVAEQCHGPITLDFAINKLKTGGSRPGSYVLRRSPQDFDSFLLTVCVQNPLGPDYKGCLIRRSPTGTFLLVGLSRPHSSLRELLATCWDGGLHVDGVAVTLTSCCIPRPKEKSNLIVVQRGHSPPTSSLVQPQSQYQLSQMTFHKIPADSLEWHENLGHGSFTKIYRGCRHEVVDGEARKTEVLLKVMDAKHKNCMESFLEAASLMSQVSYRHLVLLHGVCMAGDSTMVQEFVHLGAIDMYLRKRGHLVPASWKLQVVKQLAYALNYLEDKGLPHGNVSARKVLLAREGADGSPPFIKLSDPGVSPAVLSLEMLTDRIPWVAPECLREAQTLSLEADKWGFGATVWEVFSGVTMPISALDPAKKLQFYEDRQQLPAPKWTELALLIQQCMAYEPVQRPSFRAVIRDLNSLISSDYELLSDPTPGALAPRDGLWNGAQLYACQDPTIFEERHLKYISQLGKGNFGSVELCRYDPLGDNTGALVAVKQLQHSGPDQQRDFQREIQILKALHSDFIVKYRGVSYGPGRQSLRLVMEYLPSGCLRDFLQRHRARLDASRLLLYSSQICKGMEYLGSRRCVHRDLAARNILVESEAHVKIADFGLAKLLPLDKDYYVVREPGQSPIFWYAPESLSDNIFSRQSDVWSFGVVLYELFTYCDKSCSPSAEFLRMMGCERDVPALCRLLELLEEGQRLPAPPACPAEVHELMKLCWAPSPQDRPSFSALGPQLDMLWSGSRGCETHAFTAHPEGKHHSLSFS
Structure (SMILES),assay,setting,how to read,endpoint,value
[2H]c1cc(C)c(NC(=O)c2cnc(Nc3cc(N4CCCCC4)nc(C)n3)s2)c(Cl)c1,,0.01 µM,,inhibition,< 30%
Cc1cc(Nc2cc(N3CCN(C)CC3)nc(Sc3ccc(NC(=O)C4CC4)cc3)n2)[nH]n1,"kinase activity, KinaseProfiler","0.03 µM, species human",baseline: control,remaining activity,95%
C=CC(=O)N1CCC[C@@H](n2nc(-c3ccc(Oc4ccccc4)cc3)c3c(N)ncnc32)C1,"kinase activity, inhibitor, HotSpot radiometric","100 nM, added: ATP 10 µM",,remaining activity,7.8 ± 0.1%
CNc1ncc2c(/C=C/C(=O)N3CCC(OC)CC3)nn(Cc3cccc(C(F)(F)F)c3)c2n1,"kinase activity, inhibitor",1 µM,baseline: untreated control,remaining activity,93%
C=CC(=O)N1CCC(COCC(=O)N2CCN(c3nc(-c4cnc(N)nc4C(F)F)nc(N4CCOC[C@@H]4C)n3)CC2)CC1,KINOMEscan,1 µM,,remaining binding,100%
C=CC(=O)N1CCC([C@@H]2CCNc3c(C(N)=O)c(-c4ccc(Oc5ccccc5)cc4)nn32)CC1,"kinase activity, inhibitor, HotSpot radiometric","100 nM, added: ATP 10 µM",,remaining activity,97.1 ± 4%
O=C(NC1CCC1)c1ccc2nc(-c3cccc(NS(=O)(=O)NCCN4CCCCC4)c3)cn2c1,enzyme activity,10 µM,,remaining activity,81%
COc1cc(F)ccc1-c1ncnc(Nc2cccc(C[S@](C)(=N)=O)c2)n1,kinase activity,"10 µM, added: 10 µM ATP",,remaining activity,107%

# A few entries again:
Structure (SMILES),assay,setting,how to read,endpoint,value
[2H]c1cc(C)c(NC(=O)c2cnc(Nc3cc(N4CCCCC4)nc(C)n3)s2)c(Cl)c1,,0.01 µM,,inhibition,< 30%
